Experimental data collected from several papers.
Several values in a cell are separate wells, animals, samples, runs or records.
Target: Inhibitor of nuclear factor kappa-B kinase subunit beta (IKBKB, Homo sapiens, UniProt O14920)
Sequence (O14920 1-756, as in one of the studies): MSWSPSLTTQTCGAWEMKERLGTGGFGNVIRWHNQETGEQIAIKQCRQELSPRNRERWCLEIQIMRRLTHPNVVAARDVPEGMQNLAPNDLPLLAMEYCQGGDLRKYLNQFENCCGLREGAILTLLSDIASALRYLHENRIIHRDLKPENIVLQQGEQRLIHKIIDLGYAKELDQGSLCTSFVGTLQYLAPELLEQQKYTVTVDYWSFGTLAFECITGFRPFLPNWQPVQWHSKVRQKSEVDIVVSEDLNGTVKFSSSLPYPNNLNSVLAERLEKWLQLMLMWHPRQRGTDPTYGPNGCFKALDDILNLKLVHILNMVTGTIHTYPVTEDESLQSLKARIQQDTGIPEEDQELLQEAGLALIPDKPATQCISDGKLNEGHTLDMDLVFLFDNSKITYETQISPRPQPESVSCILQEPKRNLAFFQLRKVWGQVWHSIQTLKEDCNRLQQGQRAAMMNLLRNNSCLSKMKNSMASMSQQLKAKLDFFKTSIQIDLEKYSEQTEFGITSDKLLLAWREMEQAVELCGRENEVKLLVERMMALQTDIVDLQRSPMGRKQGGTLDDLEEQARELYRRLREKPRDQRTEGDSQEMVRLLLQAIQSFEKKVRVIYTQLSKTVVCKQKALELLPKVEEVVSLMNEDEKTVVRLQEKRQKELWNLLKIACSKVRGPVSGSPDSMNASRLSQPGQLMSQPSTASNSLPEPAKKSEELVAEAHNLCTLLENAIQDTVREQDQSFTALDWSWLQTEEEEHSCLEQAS

Cc1nc2c(F)cc(-c3nc(Nc4ccc(CNC(=O)CCCCCCC(=O)NO)cc4)ncc3F)cc2n1C(C)C
inhibition (enzyme activity, inhibitor; 1 µM): 64%

CC(=O)N1c2ccc(-c3ccc(CNC(=O)c4cn5cc(-c6cnc(N)nc6)nc(N6CCOCC6)c5n4)cc3)cc2CC[C@@H]1C
remaining binding (binding, competition with immobilised ligand; 10 µM): 88%

COc1ccc(NC(=O)Nc2ccc3c(c2)C(=O)N(C(C)CO)CC(C)C(CN(C)Cc2ccc4c(c2)OCO4)O3)cc1 (centres unmarked)
remaining activity (kinase activity, KinaseProfiler; 0.03 µM, species human; baseline: control): 101%

Cn1cc(-c2cnc3ccc(NC(=O)Nc4ccc5sccc5c4)cc3n2)cn1
inhibition (kinase binding, KiNativ profiling, measured: Lys2 peptide; PANC-1 lysate; 2.5 µM): 6.1%

COc1ccc(C(=O)/C=C/c2ccccc2-c2c[nH]c3ccc(C#N)cc23)c(O)c1
inhibition (enzyme activity, inhibitor; 20 µM): -11%

Cc1cccc(O[C@H]2CCC[C@@H](C(C)CNCc3ccncc3)C2)c1 (relative stereo)
inhibition (enzyme activity, inhibitor; 1 µM): 2%

C[C@H]1CN(C(=O)c2cn(-c3ccnc(N)n3)c3cc(C#CC4(O)CCCCC4)ccc23)CCN1
inhibition (enzyme activity, inhibitor, FRET; 1 µM): 3%

CNS(=O)(=O)Nc1nccc(Cc2c(C)c3ccc(Oc4ncccc4F)cc3oc2=O)c1F
remaining binding (cell-free assay, competition with immobilised ligand; 10 µM): 83%

CN1CCN(Cc2ccc(NC(=O)c3cccc(C#Cc4cnc(N)c5ncccc45)c3)cc2C(F)(F)F)CC1
remaining binding (cell-free assay, competition with immobilised ligand; 0.5 µM): 0.1%

CNC1C[S+]2CC[S+]3CC[S+](C1)[Ru-4]321([N]=C=S)[n]2c3ccc(OC)cc3c3c4c(c5cc(F)c[n+]1c5c32)C(=O)NC4=O (centres unmarked)
remaining binding (KinomeScan; 0.1 µM; baseline: untreated): 80%

Cc1c[nH]c2nccc(-c3ccc(C(=O)N[C@@H]4c5c(F)cc(C(F)F)cc5C[C@@H]4O)cn3)c12
remaining binding (binding, competition with immobilised ligand; 3 µM): 14%

CC(C)=CC1OC(C)(C)C2C=C3C(=O)C(Cl)=CC(O)C3C3C(O)C4OC4C(=O)C132 (centres unmarked)
remaining binding (cell-free assay, competition with immobilised ligand; 10 µM): 77%

CNC(=O)C[C@H](Cc1ccc(C#N)cc1)NC(=O)c1cc(-c2ccc(CN[C@H](C)c3ccc(C)cc3)o2)ccc1Cl
activity vs control (enzyme activity, inhibitor; 1 µM): 95%

COc1cc(Nc2nccc(-c3cnn4nc(OC)ccc34)n2)cc(C(F)(F)F)c1
remaining binding (binding, competition with immobilised ligand; 1 µM): 82%

C=CC(=O)Nc1cccc(-c2cnc3[nH]cc(C(=O)NC(C)(C)C)c3n2)c1
inhibition (enzyme activity, inhibitor; 0.1 µM): 0%

NC(=O)C[C@H]1CCc2sc3ncnc(O[C@H]4CC[C@H](N5CCOCC5)CC4)c3c21
inhibition (enzyme activity, inhibitor; 10 µM): 3%

COCC12C(=O)NC3C4(C(OC)CC1O)C1CC5(O)C(OC)C(O)C(OC(C)=O)(C1C5OC(=O)c1ccccc1)C3(O)C(OC)C24 (centres unmarked)
remaining activity (kinase activity, inhibitor, ProQinase kinase profiling; 25 µM; baseline: control): 100% and 86%

Cc1cccc(-c2ccc3nc(NC(=O)C4CCCO4)nn3c2)c1 (centres unmarked)
remaining activity (enzyme activity, Dundee kinase panel; 10 µM): 95%

CCN1CCN(Cc2ccc(C(=O)Nc3ccc(C)c(NCc4cnc5[nH]ccc5c4OC)c3)cc2C(F)(F)F)CC1
remaining binding (binding, competition with immobilised ligand; 1 µM): 1%

CCn1cc(C(=O)O)c(=O)c2c(N)c(F)c(NC3CCCCC3)cc21
inhibition (kinase activity; 0.1 µM, together with: ATP at Km): 8.7%

CN1CCN(Cc2ccc(-c3ccc(CO[C@H]4CCC[C@@H]4NC(=O)c4cc(-c5cnn(C)c5)cnc4N)cc3)cc2)CC1
inhibition (enzyme activity, inhibitor; 0.1 µM): 2%

Cc1ccc(C)c(-c2ccc3nc(NC(=O)C4CCCCC4)nn3c2)c1
remaining activity (enzyme activity, Dundee kinase panel; 10 µM): 93%

O=C(Cc1ccc(OCc2ccccc2)cc1)NC1(C(=O)O)CCN(C(=O)c2ccc(-c3cccc(Cl)c3)cc2)CC1
activity vs control (enzyme activity, inhibitor; 10 µM): 132%
